{"data": "Experimental data pooled from the literature", "note": "Each line is one published result; not all experiments were run side by side."}
{"Structure (SMILES)": "CC(C)(C)C12CC(CN3CCN(C(c4ccccc4)c4ccc(Cl)cc4)CC3)(C1)C2 (centres unmarked)", "medium": "human liver microsomes", "intrinsic clearance": "~9 µL/min/mg"}
{"Structure (SMILES)": "CC1(C)OCCc2cc(C(=O)N3CCC(c4nc(-c5ccccc5)n[nH]4)CC3)ccc21", "medium": "human liver microsomes", "pH": "pH 7.4", "together with": "NADPH", "intrinsic clearance": "267 mL/min/kg"}
{"Structure (SMILES)": "Cc1ccc2c(c1)nc(NC(=O)c1cccc(C(F)(F)F)c1)n2[C@H]1CC[C@H](N)CC1", "medium": "rat liver microsomes", "setting": "mean value", "intrinsic clearance": "184 µL/min/mg"}
{"Structure (SMILES)": "O=S(=O)(Nc1ccc(OC(F)(F)F)cc1)N1CCCC(C2c3ccc(F)cc3CCc3cc(F)ccc32)C1 (centres unmarked)", "medium": "liver microsomes", "concentration": "10 µM", "intrinsic clearance": "237 µL/min/mg"}
{"Structure (SMILES)": "C/C(=N\\OCCN(C)Cc1ccccc1)c1ccc(C(F)(F)F)cc1", "medium": "human liver microsomes", "concentration": "1 µM", "time": "45 min", "intrinsic clearance": "118 mL/min/kg"}
{"Structure (SMILES)": "CC(C)(C)[C@H](NC(=O)C(F)F)C(=O)N1C[C@H]2[C@@H]([C@H]1C(=O)N[C@H](C#N)C[C@@H]1CCCNC1=O)C2(C)C", "medium": "mouse liver microsomes", "setting": "microsomes 0.5 mg/mL", "intrinsic clearance": "83.7 µL/min/mg"}
{"Structure (SMILES)": "CNC(=O)C1CCCN(C(=O)C2CC3CCC2N3C(=O)[C@@H]2C[C@@H](O)CN2C(=O)NCc2cccc(Cl)c2F)C1 (mixture of isomers)", "medium": "mouse liver microsomes", "intrinsic clearance": "10.4 µL/min/mg"}
{"Structure (SMILES)": "[2H]C1([2H])CC[C@@H](C[C@@H](C#N)NC(=O)[C@@H]2[C@@H]3[C@H](CN2C(=O)[C@@H](NC(=O)C(F)(F)F)C(C)(C)C)C3(C)C)C(=O)N1", "medium": "human liver microsomes", "setting": "scaled to liver", "intrinsic clearance": "35.1 mL/min/kg"}
{"Structure (SMILES)": "O=S(=O)(Nc1ccc(OC(F)(F)F)cc1)N1CCCC(C2c3ccccc3CCc3ccccc32)C1 (centres unmarked)", "medium": "liver microsomes", "concentration": "10 µM", "intrinsic clearance": "421 µL/min/mg"}
{"Structure (SMILES)": "Cc1cc(C(=O)Nc2nc3cccc(C)c3n2[C@H]2CCCCN(C(=O)/C=C/CN(C)C)C2)ccn1", "medium": "mouse liver microsomes", "setting": "mean value", "intrinsic clearance": "65.5 µL/min/mg"}
{"Structure (SMILES)": "[2H]C1([2H])C[C@@H](C[C@@H](C#N)NC(=O)[C@@H]2[C@@H]3[C@H](CN2C(=O)[C@@H](NC(=O)C(F)(F)F)C(C)(C)C)C3(C)C)C(=O)N1", "medium": "mouse liver microsomes", "setting": "scaled to liver", "intrinsic clearance": "354 mL/min/kg"}
{"note": "Some of these lines once more:"}
{"Structure (SMILES)": "Cc1cc(C(=O)Nc2nc3cccc(C)c3n2[C@H]2CCCCN(C(=O)/C=C/CN(C)C)C2)ccn1", "medium": "mouse liver microsomes", "setting": "mean value", "intrinsic clearance": "65.5 µL/min/mg"}
